Results from different studies.
Each numbered part is a random draw from the data of one study; scales do not carry over between parts.
Chain of UniProt P42684 (whole entry, looked up): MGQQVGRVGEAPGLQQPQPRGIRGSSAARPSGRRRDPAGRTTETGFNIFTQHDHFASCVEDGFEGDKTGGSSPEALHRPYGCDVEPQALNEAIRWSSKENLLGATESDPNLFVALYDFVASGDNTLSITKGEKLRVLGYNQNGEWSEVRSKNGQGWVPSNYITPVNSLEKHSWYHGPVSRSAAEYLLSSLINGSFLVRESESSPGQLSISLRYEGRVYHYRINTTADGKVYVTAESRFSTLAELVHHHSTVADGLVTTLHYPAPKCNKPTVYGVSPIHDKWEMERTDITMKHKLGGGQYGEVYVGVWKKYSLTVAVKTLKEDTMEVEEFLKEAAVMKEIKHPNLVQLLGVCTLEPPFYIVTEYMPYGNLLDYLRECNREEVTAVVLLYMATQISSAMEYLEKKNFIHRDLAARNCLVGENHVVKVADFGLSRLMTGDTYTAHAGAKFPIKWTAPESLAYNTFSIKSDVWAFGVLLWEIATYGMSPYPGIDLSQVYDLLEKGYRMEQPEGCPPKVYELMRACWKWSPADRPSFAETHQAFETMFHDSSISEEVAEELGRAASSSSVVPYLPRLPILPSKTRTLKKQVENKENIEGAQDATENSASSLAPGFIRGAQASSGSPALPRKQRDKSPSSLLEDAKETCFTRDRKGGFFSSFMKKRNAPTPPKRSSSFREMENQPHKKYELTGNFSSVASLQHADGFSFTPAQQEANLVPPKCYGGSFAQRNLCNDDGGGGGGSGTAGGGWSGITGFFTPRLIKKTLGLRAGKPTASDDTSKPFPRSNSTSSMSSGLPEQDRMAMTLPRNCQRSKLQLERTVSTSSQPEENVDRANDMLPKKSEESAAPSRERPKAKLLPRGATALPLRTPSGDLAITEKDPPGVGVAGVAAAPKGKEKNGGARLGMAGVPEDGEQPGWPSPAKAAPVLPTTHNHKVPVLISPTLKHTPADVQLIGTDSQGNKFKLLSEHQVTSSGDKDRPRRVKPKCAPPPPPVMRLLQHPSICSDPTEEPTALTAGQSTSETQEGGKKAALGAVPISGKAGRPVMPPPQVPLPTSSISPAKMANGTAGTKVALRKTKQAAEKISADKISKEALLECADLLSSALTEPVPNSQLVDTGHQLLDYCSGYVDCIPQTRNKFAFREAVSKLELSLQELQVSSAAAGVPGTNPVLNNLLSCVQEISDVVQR
Chain of UniProt P42336 (whole entry, unmodified, looked up): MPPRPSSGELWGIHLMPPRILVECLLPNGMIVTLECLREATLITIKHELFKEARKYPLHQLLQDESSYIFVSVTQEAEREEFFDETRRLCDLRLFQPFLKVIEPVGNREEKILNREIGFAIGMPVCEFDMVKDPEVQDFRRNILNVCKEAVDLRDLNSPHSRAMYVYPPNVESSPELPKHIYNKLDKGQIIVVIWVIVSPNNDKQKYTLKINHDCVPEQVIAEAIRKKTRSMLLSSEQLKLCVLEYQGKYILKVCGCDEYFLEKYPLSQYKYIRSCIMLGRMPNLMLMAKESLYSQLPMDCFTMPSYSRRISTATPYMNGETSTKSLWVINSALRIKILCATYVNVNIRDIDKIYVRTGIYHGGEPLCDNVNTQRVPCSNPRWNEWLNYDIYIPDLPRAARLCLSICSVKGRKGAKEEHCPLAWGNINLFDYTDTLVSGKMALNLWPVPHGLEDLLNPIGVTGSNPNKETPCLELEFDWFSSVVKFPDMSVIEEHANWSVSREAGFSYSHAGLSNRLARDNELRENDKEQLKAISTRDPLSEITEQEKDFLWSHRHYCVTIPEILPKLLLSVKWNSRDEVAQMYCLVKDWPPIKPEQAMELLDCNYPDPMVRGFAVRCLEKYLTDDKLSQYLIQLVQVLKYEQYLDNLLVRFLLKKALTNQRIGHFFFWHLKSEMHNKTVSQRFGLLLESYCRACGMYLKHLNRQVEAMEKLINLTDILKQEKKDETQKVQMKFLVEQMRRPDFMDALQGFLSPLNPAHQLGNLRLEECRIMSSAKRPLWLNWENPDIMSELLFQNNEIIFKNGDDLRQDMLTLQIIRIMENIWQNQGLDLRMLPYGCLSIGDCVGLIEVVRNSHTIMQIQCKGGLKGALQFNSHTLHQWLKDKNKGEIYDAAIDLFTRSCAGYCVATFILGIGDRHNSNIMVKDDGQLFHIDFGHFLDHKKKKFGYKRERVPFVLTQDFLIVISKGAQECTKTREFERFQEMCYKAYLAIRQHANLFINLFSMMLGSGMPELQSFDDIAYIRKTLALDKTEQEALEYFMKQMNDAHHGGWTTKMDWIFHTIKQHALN
Chain of UniProt Q86UE8 (whole entry, looked up): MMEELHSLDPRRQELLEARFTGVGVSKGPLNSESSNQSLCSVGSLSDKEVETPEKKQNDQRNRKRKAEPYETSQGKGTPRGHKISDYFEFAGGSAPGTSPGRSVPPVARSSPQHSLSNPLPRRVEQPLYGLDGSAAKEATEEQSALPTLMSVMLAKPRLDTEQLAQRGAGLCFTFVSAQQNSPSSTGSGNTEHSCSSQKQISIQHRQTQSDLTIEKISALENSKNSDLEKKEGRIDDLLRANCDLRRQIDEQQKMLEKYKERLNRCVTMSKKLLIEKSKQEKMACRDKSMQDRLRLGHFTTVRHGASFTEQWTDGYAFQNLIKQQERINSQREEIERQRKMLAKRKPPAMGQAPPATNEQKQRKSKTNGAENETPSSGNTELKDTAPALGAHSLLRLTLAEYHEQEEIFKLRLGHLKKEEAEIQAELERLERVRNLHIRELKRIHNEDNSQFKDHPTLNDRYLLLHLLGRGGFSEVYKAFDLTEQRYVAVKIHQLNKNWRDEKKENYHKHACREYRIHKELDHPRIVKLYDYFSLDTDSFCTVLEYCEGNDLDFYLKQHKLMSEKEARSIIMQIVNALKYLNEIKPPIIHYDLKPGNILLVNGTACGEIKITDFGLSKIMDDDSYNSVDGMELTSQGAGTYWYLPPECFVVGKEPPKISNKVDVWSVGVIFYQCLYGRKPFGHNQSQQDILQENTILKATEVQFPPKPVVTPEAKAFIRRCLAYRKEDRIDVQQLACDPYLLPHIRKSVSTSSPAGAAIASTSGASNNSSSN

Study 1
Structure (SMILES): CS(=O)(=O)N1CCCC(NC(=O)[C@H](CCC2CCCCC2)NC(=O)c2ccc(CNc3ncnc4c3nnn4-c3ccccc3)cc2)C1 (stereo partly drawn)
Effect on: cell-free assay
Method: competition with immobilised ligand
Tested at: 0.1 µM
Quantity: remaining binding
Mast/stem cell growth factor receptor Kit, autoinhibited (KIT, Homo sapiens, UniProt P10721): 100%
PIM3 (Homo sapiens, UniProt Q86V86): 100%
PIK3CA (Homo sapiens, UniProt P42336, H1047Y): 100%
PAK2 (Homo sapiens, UniProt Q13177): 100%

Study 2
Host: human
Medium: microsomes or S9
Tested at: 2 µM
Time: 0.5 h
Quantity: remaining compound
CC(C)n1cncc1CN1CC[C@H]2OCc3cnnn3[C@H]2C1: 79.6%
Cc1noc(C)c1Cc1c(C(=O)N2CCC(n3c(C)cnc3C3CCC3)C2)noc1C (stereo not drawn): 5.82%
Cn1nc(C(=O)NCCn2ccc(-c3ccsc3)n2)ccc1=O: 67.5%
O=C(NCCN1CCCCC1)c1cc2ccccc2s1: 4.53%
CC(C)Oc1cccc(/C=C(/F)Oc2ccc(OC[C@@H]3C[C@@](Cn4cncn4)(c4ccc(Cl)cc4Cl)N(C)O3)cc2)c1: 11.4%

Study 3
Target: Serine/threonine-protein kinase MRCK beta (CDC42BPB, Homo sapiens, UniProt Q9Y5S2)
Chain of UniProt Q9Y5S2 (whole entry, looked up): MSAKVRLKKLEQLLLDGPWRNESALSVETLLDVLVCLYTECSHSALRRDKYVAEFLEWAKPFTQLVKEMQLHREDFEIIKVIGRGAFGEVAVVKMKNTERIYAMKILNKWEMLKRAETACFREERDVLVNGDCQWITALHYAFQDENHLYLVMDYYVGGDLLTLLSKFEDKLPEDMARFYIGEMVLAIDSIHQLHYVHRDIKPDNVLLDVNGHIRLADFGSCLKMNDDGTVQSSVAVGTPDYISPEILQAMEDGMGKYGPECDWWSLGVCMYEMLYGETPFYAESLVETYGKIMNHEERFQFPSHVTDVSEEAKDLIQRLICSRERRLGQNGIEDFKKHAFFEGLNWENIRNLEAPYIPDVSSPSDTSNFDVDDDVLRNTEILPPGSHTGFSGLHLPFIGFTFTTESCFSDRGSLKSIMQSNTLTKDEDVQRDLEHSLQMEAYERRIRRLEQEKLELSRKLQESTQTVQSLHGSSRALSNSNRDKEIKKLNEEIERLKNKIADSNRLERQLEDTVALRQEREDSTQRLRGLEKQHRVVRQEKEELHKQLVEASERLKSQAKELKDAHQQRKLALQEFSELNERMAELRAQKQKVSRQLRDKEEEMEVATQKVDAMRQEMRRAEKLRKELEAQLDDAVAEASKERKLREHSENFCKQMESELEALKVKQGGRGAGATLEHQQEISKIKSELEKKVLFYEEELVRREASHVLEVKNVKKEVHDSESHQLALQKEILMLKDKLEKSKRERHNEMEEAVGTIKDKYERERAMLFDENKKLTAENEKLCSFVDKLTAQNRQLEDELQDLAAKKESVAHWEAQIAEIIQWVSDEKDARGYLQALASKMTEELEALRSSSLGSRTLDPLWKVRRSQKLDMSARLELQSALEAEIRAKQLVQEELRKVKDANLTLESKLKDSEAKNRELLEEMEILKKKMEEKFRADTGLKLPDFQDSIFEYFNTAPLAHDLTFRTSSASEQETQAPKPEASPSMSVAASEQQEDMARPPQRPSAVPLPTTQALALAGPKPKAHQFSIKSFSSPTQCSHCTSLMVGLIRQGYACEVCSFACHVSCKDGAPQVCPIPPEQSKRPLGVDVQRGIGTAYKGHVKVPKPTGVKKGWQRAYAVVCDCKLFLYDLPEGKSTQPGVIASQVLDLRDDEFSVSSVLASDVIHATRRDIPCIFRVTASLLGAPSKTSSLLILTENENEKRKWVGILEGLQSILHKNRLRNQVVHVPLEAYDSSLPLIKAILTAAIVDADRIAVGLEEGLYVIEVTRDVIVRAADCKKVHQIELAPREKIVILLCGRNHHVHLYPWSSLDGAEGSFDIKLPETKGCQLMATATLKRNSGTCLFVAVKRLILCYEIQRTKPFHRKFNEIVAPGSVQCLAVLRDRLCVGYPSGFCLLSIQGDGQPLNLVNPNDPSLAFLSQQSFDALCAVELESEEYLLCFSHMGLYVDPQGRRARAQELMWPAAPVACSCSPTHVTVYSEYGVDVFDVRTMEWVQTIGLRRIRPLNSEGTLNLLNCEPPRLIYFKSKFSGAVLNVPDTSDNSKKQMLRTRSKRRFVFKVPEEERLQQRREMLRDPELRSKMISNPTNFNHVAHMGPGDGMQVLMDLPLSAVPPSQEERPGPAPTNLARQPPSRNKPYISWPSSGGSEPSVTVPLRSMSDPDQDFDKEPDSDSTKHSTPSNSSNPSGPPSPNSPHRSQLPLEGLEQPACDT
Effect on: enzyme activity
Action: inhibitor
Tested at: 0.5 µM
Reference: control
Quantity: remaining activity
O=C(CCCc1ccc(-c2ccccc2F)cc1)Nc1ccc(O)cc1: 109%
CC(C)[C@H](CO)Nc1nc(Nc2cc(N)cc(Cl)c2)c2ncn(C(C)C)c2n1: 98.4%
CNC(=O)c1cc(Oc2ccc(NC(=O)Nc3ccc(Cl)c(C(F)(F)F)c3)cc2)ccn1: 102%
CN(C)c1ccc(C=C2C(=O)Nc3ccccc32)cc1: 89.5%
COc1ccc(C(=O)Nc2sc3c(c2C(N)=O)CCCC3)cc1OC: 94.5%
CCOC(=O)c1c(C)[nH]c(/C=C2\C(=O)Nc3ccccc32)c1C: 110%
Cc1ccc(Nc2nccc(N(C)c3ccc4c(C)n(C)nc4c3)n2)cc1S(N)(=O)=O: 99.9%
Cc1cccc(-c2[nH]c(C(C)(C)C)nc2-c2ccc3c(c2)OCO3)n1: 102%
Cc1ccc(NC(=O)c2ccc(CN3CCN(C)CC3)cc2)cc1Nc1nc(-c2cccnc2)cs1: 98.1%
Nc1[nH]nc2nc3ccccc3nc12: 100%
CO[C@H]1C[C@@H]2CC[C@@H](C)[C@@](O)(O2)C(=O)C(=O)N2CCCC[C@H]2C(=O)O[C@H]([C@H](C)C[C@@H]2CC[C@@H](O)[C@H](OC)C2)CC(=O)[C@H](C)/C=C(\C)[C@@H](O)[C@@H](OC)C(=O)[C@H](C)C[C@H](C)/C=C/C=C/C=C/1C: 103%
Nc1ncnc2n[nH]c(Nc3ccc(F)cc3)c12: 106%

Study 4
SMILES: CN1CCN(C(=O)c2ccc(NC(=O)Nc3ccc(N(C)c4ccnc(Nc5ccc(CS(C)(=O)=O)cc5)n4)cc3)cc2)CC1
Effect on: binding
Tested at: 1 µM
Quantity: remaining binding
PRKAA1 (Homo sapiens, UniProt Q13131); competition with immobilised ligand: 82%
TLK2 (Homo sapiens, UniProt Q86UE8): 100%
EPHA8 (Homo sapiens, UniProt P29322); competition with immobilised ligand: 89%
ABL2 (Homo sapiens, UniProt P42684); competition with immobilised ligand: 44%
MET (Homo sapiens, UniProt P08581): 8.8%

Further values, each from its own experiment
CC(=O)N[C@@H](Cc1c[nH]c2ccccc12)C(=O)N[C@@H](CCC(=O)C=[N+]=[N-])C(=O)OC(C)C
tumour volume (mice, MC-38 tumour rechallenge; 0.26 mg/kg, day 25 after injection): 0 mm3

Repeated from above (study 3):
Nc1[nH]nc2nc3ccccc3nc12: 100%
CO[C@H]1C[C@@H]2CC[C@@H](C)[C@@](O)(O2)C(=O)C(=O)N2CCCC[C@H]2C(=O)O[C@H]([C@H](C)C[C@@H]2CC[C@@H](O)[C@H](OC)C2)CC(=O)[C@H](C)/C=C(\C)[C@@H](O)[C@@H](OC)C(=O)[C@H](C)C[C@H](C)/C=C/C=C/C=C/1C: 103%
